Assay results from different studies.
Parts stem from different laboratories: compare values within a part only.
UniProt Q9BYT3, sequence (whole entry, looked up): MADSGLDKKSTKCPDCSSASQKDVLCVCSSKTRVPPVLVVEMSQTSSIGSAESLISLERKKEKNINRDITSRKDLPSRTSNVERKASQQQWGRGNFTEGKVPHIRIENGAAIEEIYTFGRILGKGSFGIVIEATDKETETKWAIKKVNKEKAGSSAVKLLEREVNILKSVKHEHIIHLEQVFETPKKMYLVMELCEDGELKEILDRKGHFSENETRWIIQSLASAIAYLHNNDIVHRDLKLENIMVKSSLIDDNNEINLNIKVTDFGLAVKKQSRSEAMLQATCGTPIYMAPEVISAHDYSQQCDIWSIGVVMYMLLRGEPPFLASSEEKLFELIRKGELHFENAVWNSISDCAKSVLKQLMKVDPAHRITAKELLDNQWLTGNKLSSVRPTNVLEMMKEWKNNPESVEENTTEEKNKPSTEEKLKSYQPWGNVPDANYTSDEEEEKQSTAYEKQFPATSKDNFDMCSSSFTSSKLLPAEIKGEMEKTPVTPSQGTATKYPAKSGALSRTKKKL
UniProt Q15349, sequence (whole entry, looked up): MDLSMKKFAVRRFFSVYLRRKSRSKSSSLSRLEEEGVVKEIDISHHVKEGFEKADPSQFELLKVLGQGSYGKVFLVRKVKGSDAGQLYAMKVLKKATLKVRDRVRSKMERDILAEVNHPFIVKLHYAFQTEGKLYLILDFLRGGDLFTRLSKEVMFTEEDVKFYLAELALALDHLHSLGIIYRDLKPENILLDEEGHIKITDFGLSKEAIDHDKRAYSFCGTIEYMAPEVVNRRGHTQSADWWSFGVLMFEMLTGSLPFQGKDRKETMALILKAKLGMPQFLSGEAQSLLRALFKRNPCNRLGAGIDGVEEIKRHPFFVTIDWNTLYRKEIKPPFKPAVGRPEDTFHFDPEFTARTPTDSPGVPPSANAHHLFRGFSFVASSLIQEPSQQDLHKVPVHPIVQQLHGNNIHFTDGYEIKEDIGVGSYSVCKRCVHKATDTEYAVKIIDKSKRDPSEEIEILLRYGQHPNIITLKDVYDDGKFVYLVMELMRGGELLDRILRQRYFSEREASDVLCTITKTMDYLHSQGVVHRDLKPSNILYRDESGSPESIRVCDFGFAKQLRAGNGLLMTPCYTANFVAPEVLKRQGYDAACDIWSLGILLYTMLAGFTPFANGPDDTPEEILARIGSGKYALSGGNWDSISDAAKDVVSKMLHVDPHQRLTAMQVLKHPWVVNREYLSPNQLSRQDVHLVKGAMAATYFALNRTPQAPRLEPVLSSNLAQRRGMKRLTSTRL
UniProt P42685, sequence (whole entry, looked up): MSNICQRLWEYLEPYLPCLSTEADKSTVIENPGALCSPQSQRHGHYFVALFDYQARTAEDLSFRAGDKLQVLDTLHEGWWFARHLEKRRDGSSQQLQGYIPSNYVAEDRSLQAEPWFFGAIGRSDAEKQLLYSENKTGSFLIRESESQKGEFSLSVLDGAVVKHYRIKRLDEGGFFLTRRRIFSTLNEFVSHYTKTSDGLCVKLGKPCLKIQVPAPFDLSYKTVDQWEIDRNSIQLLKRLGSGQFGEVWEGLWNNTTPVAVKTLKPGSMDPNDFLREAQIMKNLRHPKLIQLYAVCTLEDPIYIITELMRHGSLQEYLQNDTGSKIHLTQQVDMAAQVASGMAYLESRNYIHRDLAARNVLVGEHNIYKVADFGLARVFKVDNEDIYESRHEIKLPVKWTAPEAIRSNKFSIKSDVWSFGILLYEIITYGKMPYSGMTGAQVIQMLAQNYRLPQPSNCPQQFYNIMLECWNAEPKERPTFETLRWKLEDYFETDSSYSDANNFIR
UniProt Q9H093, sequence (whole entry, looked up): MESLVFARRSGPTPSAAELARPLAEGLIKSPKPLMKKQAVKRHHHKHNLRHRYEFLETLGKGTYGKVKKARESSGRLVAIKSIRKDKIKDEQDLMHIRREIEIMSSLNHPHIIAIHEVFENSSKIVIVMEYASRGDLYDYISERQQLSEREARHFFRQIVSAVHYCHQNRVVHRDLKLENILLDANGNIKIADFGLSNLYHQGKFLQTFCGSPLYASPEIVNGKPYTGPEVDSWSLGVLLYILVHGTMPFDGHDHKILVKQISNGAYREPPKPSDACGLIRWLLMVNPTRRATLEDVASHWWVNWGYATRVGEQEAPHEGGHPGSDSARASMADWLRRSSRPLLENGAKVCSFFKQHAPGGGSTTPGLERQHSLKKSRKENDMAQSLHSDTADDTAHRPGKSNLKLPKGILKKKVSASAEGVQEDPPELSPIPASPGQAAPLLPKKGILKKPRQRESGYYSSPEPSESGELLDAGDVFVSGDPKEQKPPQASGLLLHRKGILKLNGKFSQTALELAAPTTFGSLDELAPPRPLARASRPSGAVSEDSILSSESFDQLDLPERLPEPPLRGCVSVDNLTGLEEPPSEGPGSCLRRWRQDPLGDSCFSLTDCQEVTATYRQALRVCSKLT
UniProt Q8WTQ7, sequence (whole entry, looked up): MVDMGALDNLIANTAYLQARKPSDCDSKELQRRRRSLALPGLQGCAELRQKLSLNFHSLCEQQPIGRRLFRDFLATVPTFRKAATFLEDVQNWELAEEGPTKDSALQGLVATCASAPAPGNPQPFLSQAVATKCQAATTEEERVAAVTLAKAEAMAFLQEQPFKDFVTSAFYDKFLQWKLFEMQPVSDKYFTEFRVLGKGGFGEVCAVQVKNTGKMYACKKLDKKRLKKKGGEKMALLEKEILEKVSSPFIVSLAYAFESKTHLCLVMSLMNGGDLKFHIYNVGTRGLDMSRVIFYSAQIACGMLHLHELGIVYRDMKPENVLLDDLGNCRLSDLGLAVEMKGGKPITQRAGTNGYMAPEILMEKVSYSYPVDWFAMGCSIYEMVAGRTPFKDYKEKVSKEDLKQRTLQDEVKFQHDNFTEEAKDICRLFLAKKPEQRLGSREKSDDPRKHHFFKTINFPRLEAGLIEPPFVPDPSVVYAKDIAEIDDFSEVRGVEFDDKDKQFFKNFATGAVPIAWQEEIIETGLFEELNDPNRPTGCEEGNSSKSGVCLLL
UniProt P49841, sequence (whole entry, looked up): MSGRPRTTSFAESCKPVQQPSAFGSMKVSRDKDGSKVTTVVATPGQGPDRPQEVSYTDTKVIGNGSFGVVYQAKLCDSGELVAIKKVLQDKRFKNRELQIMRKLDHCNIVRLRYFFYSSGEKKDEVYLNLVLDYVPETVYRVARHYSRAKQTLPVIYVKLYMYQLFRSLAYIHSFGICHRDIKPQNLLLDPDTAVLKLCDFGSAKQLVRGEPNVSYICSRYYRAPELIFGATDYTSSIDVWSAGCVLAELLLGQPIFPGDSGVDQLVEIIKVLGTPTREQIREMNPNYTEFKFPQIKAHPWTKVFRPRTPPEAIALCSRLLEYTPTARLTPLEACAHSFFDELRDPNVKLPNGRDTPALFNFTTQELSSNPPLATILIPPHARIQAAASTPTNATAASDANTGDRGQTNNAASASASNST
UniProt P29320, sequence (whole entry, looked up): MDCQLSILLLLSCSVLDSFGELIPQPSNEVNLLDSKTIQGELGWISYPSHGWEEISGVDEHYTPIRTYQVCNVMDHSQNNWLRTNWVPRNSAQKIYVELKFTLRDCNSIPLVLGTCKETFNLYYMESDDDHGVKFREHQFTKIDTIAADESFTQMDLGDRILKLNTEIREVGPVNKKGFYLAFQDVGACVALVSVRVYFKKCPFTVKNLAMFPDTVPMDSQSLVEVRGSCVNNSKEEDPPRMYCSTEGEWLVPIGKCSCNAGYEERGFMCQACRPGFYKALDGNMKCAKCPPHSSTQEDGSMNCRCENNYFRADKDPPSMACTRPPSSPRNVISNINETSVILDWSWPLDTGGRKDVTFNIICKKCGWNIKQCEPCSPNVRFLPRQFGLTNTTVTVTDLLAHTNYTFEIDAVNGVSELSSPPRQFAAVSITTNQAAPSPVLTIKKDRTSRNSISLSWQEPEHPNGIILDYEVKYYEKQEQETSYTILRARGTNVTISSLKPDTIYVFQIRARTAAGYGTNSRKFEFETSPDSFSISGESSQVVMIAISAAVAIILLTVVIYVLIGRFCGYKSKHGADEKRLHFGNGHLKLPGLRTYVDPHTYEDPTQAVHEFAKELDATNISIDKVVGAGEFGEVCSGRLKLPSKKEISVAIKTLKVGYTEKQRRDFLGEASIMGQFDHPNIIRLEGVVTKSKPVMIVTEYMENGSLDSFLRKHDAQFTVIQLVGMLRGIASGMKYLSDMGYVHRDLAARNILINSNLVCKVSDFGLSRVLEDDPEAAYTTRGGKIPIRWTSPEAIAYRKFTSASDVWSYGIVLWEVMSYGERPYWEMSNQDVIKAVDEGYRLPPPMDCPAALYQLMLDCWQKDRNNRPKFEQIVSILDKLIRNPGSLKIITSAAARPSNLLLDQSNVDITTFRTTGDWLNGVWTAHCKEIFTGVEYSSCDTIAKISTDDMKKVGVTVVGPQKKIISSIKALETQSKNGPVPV
UniProt Q6PHR2, sequence (whole entry, looked up): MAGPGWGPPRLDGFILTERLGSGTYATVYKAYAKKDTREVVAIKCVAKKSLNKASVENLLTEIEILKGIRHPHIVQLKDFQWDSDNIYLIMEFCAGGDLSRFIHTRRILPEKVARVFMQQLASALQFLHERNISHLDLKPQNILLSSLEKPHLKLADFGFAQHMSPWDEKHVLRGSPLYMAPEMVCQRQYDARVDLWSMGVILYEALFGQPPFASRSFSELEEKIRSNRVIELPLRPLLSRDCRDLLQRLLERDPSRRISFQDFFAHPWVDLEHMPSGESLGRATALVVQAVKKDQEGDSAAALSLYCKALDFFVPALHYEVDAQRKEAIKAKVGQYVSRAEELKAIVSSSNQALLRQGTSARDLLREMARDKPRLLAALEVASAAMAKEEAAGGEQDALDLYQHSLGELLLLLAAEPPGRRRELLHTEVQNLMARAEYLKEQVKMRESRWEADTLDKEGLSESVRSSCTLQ

Study 1 — species: mouse; matrix: microsomes or S9; concentration: 2 µM; time: 0.5 h
With `COC(=O)c1c(CS(=O)(=O)c2ccccc2)n(S(=O)(=O)c2ccccc2)c2ccccc12` the remaining compound was 21%.
`CC(C)n1[nH]c(=O)c2c1NC(=O)CC2c1cnn(C)c1` (stereo not drawn) has a remaining compound of 32.4%.
For `COc1cc(C2CCNCC2)ccc1Nc1ncc(Cl)c(Nc2ccccc2CS(=O)(=O)C(C)C)n1`, the remaining compound was 74.3%.
`O=S1(=O)N=C(N2CCN(c3ccccc3)CC2)c2ccccc21` has a remaining compound of < 1%.
`O=C(CCCOc1ccc(Cl)cc1Cl)Nc1cccc(-c2nnc(-c3ccco3)o2)c1` gave a remaining compound of > 99.9%.
`Cn1c2c(c(=O)c3cc(Oc4ccccc4)ccc31)CCC2` gave a remaining compound of 4.01%.

Study 2 — cell line: HaCaT; concentration: 100 µM; time: 18 h
`O=C(O)c1cc(O)c(O)c(O)c1` has a viability of 75.1%.
The viability of `CC[C@H](C)C(=O)O[C@H]1CCC=C2C=C[C@H](C)[C@H](CC[C@@H]3C[C@@H](O)CC(=O)O3)[C@H]21` is reported as 40.7%.
`Clc1ccc(C(c2ccccc2Cl)C(Cl)Cl)cc1` (stereo not drawn) gave a viability of 17.5%.
The viability of `O=C1c2c(O)cccc2C([C@@H]2O[C@H](CO)[C@@H](O)[C@H](O)[C@H]2O)c2cc(CO)cc(O)c21` (stereo partly drawn) is reported as 118%.
`C[C@H]1[C@H](C)CC[C@]2(C(=O)O)CC[C@]3(C)C(=CC[C@@H]4[C@@]5(C)C[C@@H](O)[C@H](O)[C@@](C)(CO)[C@@H]5CC[C@]43C)[C@H]12` has a viability of 17.7%.
With `Nc1ccc2cc3ccc(N)cc3nc2c1` the viability was 27.8%.
The viability of `CCNC(=O)CCC/C=C\C[C@@H]1[C@@H](/C=C/[C@@H](O)CCc2ccccc2)[C@H](O)C[C@@H]1O` is reported as 107%.
For `CC(=O)NS(=O)(=O)c1ccc(NC(=O)c2ccccc2C(=O)O)cc1`, the viability was 88.7%.
`COc1ccc([C@@H]2CC(=O)c3c(O)cc(O)cc3O2)cc1O` gave a viability of 92.5%.

Study 3 — read-out: cell-free assay; technique: competition with immobilised ligand; concentration: 1 µM
Compound: CN(C(=O)c1ccccc1)c1cc(N(C)c2ccc3c(c2)CCc2ccc(C(=O)NCCN4CCOCC4)cc2C3=O)ccc1F
It gave 81% for remaining binding (STK33 (Homo sapiens, UniProt Q9BYT3)).
For ACVR1 (Homo sapiens, UniProt Q04771): remaining binding read 100%.
It gave 100% for remaining binding (MAP3K13 (Homo sapiens, UniProt O43283)).
The remaining binding was 84% (Tyrosine-protein kinase ABL1, phosphorylated (ABL1, Homo sapiens, UniProt P00519, T315I)).
It gave 100% for remaining binding (MAP2K3 (Homo sapiens, UniProt P46734)).
It gave 99% for remaining binding (MARK3 (Homo sapiens, UniProt P27448)).
NUAK2 (Homo sapiens, UniProt Q9H093) — remaining binding: 100%.

Study 4 — SMILES: COc1cc2ncc(-c3ccccc3)nc2cc1OC; read-out: enzyme activity; action: inhibitor; concentration: 0.5 µM; reference: control
The remaining activity was 105% (GRK7 (Homo sapiens, UniProt Q8WTQ7)).
It gave 82.8% for remaining activity (WEE1 (Homo sapiens, UniProt P30291)).
The remaining activity was 93.5% (LCK (Homo sapiens, UniProt P06239)).
MAPK3 (Homo sapiens, UniProt P27361) — remaining activity: 97.6%.
For NEK1 (Homo sapiens, UniProt Q96PY6): remaining activity read 95.9%.
The remaining activity was 99.3% (FRK (Homo sapiens, UniProt P42685)).
It gave 95.9% for remaining activity (TAOK2 (Homo sapiens, UniProt Q9UL54)).
The remaining activity was 113% (GSK3B (Homo sapiens, UniProt P49841)).
RPS6KA2 (Homo sapiens, UniProt Q15349) — remaining activity: 85.4%.
It gave 95.2% for remaining activity (ACVR1B (Homo sapiens, UniProt P36896)).
It gave 84.2% for remaining activity (MST1R (Homo sapiens, UniProt Q04912)).
ULK3 (Homo sapiens, UniProt Q6PHR2) — remaining activity: 89.4%.
For MAP2K2 (Homo sapiens, UniProt P36507): remaining activity read 102%.
It gave 86.8% for remaining activity (EPHA3 (Homo sapiens, UniProt P29320)).
